Assay results gathered from unrelated publications.
Compare with care: the assays were run in different laboratories. ± marks the error that the study gave.
UniProt P00940, sequence (whole entry, unmodified, looked up): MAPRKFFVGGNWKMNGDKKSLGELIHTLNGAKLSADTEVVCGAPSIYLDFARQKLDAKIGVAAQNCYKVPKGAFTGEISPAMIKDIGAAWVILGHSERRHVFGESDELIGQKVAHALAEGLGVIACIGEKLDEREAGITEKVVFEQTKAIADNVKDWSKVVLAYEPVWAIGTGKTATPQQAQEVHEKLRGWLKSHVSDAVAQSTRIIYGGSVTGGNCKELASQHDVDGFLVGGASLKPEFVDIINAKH
UniProt Q9NRM7, sequence (whole entry, looked up): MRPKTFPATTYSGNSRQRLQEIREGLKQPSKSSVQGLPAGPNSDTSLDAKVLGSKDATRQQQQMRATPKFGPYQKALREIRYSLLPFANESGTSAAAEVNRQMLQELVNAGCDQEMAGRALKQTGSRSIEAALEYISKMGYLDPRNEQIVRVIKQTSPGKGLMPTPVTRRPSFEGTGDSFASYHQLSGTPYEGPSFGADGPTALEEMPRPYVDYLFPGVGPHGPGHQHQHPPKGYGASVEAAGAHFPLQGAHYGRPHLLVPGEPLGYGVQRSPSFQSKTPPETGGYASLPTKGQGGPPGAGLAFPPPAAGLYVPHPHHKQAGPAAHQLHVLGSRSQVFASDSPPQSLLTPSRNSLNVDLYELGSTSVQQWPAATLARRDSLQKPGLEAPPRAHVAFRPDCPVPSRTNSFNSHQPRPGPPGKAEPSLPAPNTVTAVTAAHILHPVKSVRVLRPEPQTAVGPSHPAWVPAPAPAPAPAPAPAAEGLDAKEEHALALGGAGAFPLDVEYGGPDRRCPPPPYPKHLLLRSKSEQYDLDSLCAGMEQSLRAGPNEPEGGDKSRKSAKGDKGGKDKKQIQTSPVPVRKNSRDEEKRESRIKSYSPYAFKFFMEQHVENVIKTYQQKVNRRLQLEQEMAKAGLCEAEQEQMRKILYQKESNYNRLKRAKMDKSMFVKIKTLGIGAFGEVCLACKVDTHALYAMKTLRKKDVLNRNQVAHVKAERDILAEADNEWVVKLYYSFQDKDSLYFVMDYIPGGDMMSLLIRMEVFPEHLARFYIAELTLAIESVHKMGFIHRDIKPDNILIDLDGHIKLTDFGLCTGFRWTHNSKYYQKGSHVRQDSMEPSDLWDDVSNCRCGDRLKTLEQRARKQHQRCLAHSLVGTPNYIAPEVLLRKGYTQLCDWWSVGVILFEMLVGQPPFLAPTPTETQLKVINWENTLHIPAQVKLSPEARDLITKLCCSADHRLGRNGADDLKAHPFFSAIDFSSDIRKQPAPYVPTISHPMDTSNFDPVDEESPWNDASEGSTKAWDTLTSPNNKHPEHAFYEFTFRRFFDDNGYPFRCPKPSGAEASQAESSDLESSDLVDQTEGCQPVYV
UniProt P49327, sequence (whole entry, looked up): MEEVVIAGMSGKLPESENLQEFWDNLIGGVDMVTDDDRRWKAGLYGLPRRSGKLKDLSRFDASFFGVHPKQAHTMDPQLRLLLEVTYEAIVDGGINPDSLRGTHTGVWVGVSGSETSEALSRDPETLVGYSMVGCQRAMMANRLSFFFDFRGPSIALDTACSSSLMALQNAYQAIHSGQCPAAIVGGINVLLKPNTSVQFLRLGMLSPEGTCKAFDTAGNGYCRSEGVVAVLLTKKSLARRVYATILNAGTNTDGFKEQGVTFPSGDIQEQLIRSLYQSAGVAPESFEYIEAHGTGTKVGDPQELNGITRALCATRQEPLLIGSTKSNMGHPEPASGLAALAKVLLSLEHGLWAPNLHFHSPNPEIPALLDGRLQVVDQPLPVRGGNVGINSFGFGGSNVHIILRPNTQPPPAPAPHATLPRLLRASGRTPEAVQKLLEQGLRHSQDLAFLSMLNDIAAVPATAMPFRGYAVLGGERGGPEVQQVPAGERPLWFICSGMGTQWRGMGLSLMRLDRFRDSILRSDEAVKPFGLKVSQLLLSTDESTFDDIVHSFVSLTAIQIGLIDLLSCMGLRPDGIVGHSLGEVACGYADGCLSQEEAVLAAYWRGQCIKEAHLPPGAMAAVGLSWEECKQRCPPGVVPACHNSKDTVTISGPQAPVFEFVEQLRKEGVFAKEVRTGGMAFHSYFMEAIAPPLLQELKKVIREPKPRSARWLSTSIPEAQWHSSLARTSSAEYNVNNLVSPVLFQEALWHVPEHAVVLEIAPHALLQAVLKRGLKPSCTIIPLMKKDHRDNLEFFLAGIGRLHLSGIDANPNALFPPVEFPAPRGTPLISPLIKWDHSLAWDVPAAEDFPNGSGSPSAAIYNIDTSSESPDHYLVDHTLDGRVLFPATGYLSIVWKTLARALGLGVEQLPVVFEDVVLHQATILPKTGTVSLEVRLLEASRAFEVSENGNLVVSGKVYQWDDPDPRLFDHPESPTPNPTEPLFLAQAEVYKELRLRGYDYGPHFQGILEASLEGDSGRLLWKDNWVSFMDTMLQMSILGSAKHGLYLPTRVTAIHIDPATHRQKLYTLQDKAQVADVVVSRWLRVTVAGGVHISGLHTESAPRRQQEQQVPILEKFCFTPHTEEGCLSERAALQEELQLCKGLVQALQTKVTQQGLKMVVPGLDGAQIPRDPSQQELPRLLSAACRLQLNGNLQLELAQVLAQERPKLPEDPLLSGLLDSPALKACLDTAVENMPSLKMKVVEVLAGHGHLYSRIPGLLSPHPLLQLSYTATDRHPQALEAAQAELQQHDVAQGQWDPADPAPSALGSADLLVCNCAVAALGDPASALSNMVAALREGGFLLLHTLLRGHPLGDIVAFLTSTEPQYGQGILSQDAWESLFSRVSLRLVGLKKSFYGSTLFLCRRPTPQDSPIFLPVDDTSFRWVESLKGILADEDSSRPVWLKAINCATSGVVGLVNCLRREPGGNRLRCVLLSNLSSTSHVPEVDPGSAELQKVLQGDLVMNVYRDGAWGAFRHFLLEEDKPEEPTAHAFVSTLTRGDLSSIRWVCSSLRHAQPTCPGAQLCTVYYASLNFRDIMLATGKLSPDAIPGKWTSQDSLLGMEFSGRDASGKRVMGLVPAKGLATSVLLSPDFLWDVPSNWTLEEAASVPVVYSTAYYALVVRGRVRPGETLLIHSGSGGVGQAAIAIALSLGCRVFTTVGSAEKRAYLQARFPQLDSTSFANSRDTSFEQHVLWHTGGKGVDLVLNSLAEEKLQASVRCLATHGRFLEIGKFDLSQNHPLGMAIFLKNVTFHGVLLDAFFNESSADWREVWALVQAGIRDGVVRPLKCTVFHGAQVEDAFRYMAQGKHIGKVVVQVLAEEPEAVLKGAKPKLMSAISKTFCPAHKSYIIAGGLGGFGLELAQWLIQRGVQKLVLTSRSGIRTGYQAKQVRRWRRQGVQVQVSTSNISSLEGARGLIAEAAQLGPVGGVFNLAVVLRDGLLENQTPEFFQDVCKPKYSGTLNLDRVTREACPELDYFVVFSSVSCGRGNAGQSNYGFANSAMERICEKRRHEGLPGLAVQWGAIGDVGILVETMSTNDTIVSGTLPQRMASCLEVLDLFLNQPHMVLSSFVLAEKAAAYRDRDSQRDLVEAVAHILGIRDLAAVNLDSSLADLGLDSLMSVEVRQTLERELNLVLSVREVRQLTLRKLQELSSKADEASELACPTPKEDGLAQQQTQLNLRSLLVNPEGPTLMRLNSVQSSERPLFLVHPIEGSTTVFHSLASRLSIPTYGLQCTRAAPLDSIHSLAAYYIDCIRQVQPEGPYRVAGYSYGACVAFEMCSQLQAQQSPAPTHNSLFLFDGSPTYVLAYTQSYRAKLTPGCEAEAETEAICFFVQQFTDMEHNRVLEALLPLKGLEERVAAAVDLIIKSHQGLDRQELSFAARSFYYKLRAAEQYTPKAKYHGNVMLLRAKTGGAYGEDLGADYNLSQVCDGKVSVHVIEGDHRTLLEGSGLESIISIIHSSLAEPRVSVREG
UniProt Q14654, sequence (whole entry, looked up): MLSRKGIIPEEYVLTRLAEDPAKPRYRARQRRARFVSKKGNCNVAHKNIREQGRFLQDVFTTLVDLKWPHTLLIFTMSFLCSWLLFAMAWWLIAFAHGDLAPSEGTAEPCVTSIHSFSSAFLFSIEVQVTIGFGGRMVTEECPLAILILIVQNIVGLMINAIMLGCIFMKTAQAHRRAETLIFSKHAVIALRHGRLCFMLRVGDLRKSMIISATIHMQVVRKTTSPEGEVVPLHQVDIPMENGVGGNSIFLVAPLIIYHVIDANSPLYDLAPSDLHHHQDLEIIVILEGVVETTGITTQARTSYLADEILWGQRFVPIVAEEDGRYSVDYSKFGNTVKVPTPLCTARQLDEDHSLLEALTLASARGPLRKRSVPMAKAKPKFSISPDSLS
UniProt P40939, sequence (whole entry, looked up): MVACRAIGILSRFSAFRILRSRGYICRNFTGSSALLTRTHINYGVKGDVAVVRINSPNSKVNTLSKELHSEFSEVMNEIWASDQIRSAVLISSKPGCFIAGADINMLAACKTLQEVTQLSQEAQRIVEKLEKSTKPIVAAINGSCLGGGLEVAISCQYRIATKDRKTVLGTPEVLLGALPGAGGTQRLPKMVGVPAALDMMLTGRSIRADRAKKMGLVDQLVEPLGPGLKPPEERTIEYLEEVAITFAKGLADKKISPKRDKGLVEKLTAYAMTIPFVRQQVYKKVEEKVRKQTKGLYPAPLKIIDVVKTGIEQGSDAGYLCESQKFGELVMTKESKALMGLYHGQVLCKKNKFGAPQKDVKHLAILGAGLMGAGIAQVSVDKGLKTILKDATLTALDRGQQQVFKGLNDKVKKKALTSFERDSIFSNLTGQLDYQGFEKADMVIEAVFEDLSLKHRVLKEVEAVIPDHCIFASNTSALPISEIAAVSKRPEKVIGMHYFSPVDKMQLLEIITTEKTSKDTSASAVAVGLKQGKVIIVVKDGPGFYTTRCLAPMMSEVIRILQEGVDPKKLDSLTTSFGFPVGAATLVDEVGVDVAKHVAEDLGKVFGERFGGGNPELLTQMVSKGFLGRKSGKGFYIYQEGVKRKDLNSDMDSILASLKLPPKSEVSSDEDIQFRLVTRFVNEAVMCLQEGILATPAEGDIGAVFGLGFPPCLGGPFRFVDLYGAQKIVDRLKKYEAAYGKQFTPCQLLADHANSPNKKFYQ

SMILES	target or system	test	system	conditions	how to read	endpoint	result
CC[C@H](C)[C@H](NC(=O)[C@H](Cc1ccccc1)NC(=O)[C@H](CCC(=O)O)NC(=O)[C@H](CCCNC(=N)N)NC(=O)[C@H](C)NC(=O)[C@H](C)NC(=O)[C@H](CCC(N)=O)NC(=O)[C@H](CCC(=O)O)NC(=O)[C@H](CCC(=O)O)NC(=O)[C@H](CC(C)C)NC(=O)[C@H](Cc1ccc(O)cc1)NC(=O)[C@H](CO)NC(=O)[C@H](CO)NC(=O)[C@@H](NC(=O)[C@H](CC(=O)O)NC(=O)[C@H](CO)NC(=O)[C@@H](NC(=O)[C@H](Cc1ccccc1)NC(=O)[C@@H](NC(=O)CNC(=O)[C@H](CCC(=O)O)NC(=O)[C@H](C)NC(=O)CCc1c[nH]cn1)[C@@H](C)O)[C@@H](C)O)C(C)C)C(=O)N[C@@H](C)C(=O)N[C@@H](Cc1c[nH]c2ccccc12)C(=O)N[C@@H](CC(C)C)C(=O)N[C@H](C(=O)N[C@@H](CCCNC(=N)N)C(=O)NCC(=O)N[C@@H](CCCNC(=N)N)C(=O)N[C@@H](CCCCNC(=O)COCCOCCNC(=O)COCCOCCNC(=O)CC[C@H](NC(=O)CCCCCCCCCCCCCCCCC(=O)O)C(=O)O)C(=O)NCC(=O)NCC(=O)N[C@@H](CO)C(=O)N[C@@H](CCCCNc1c(NCCCCCN(O)C(=O)CCC(=O)NCCCCCN(O)C(=O)CCC(=O)NCCCCCN(O)C(C)=O)c(=O)c1=O)C(=O)O)C(C)C [zirconium-89 labelled]	–	ex vivo gamma counting	rat, kidney	subcutaneous, 3 nmol/kg, 24 h, together with: [89Zr]-labelled peptide	–	tissue uptake	5.82 %ID/g
O=C(c1ccc(Cl)cc1)N1CCN2C(=O)N(OC(=O)N3CCOc4ccccc43)C(=O)C2C1 (stereo not drawn)	Fatty acid synthase (FASN, Homo sapiens, UniProt P49327)	enzyme activity, inhibitor, MS-based ABPP	SW-620 conditioned medium	10 µM, 1 h, 37 °C	baseline: compound over DMSO, lower = stronger inhibition	median ratio	1.2
CC[C@H](C)[C@@H]1NC(=O)[C@@H]2CCCN2C(=O)[C@H](CC(C)C)NC(=O)[C@H](CC(C)C)NC(=O)CNC(=O)[C@@H](NC(=O)[C@@H](NC(=O)[C@H](CC(=O)O)NC(=O)CNC(=O)[C@@H](NC(=O)[C@H](C)NC(=O)CNC(=O)[C@H](CCCCN)NC(=O)[C@H](CC(C)C)NC(=O)[C@H](CC(C)C)NC(=O)[C@H](CCCCN)NC(=O)CNC(=O)[C@@H](NC(=O)[C@@H](N)CC(C)C)C(C)C)C(C)C)C(C)C)CSSC[C@@H](C(=O)O)NC1=O	–	RNA-seq, item: Slfn2 mRNA	mouse traumatic brain injury, frontal cortex and hippocampus	dose not given	baseline: TBI plus compound vs TBI	log2 fold change	-3.23
CN1CCN(c2cc(-c3ccncc3)c(-c3ccc4ccccc4c3)nn2)CC1	AVPR2 (Homo sapiens, UniProt P30518)	antagonist, FLIPR	–	10 µM	–	inhibition	-4.8%
COc1cc2c(Oc3ccc4[nH]c(C)cc4c3F)ccnc2cc1OCC1(N)CC1	–	–	paediatric recurrent refractory sarcoma	12 mg	–	grade 3 abdominal pain	9.1%
CN(C(=O)n1cnc(-c2ccc[n+]([O-])c2)c1)C1CCCCC1	EGF receptor	–	–	concentration not given	–	inhibition	-13%
COc1cc(Nc2ncc(F)c(Nc3ccc4c(n3)NC(=O)C(C)(C)O4)n2)cc(OC)c1OC	PTEN (Homo sapiens, UniProt P60484)	–	–	MMAC1	–	IC50	> 10 µM
COc1ccc(N2C(=O)N(c3c(C)cccc3Cl)Cc3cnc(Nc4ccc(C5CCN(C)CC5)cc4OC)nc32)nc1	MAP2K1 (Homo sapiens, UniProt Q02750)	kinase activity, inhibitor	–	0.5 µM, kinase MEK1	–	inhibition	12%
O=C(O)COP(=O)(O)O	Triosephosphate isomerase (TPI1, Gallus gallus, UniProt P00940, G210A/S211G/Y208T)	enzyme activity, competitive inhibitor, GPDH/NADH-coupled	–	pH 7.5, 25 °C, ionic strength 0.1 NaCl, together with: glyceraldehyde 3-phosphate substrate	baseline: mutant over wild type	Ki ratio	122
C[C@H]1CN(c2n[nH]c3nc(N[C@H]4CC[C@H](NS(=O)(=O)CCC(F)(F)F)CC4)ncc23)CCO1	HADHA (Homo sapiens, UniProt P40939)	inhibitor, Kinobeads competition profiling	–	20 µM	baseline: vehicle	relative abundance	1.08
[2H]c1c([2H])c([C@]2([2H])CCCN2C(=O)C(C)(C)Oc2ccc3cn[nH]c3c2)c([2H])c([2H])c1C([2H])([2H])[2H]	LATS2 (Homo sapiens, UniProt Q9NRM7)	KINOMEscan	–	1 µM	baseline: DMSO control	remaining binding	88%
Nc1ncnc2c1ncn2[C@@H]1O[C@H](COP(=O)(O)OP(=O)(O)OP(=O)(O)O)[C@@H](O)[C@H]1O	ATP-sensitive inward rectifier potassium channel 11 (Homo sapiens, UniProt Q14654)	single-channel patch clamp	–	concentration not given, reactivation after rundown	–	long open time constant	3 ± 0.3 ms

Some of these lines once more:
SMILES	target or system	test	system	conditions	how to read	endpoint	result
O=C(O)COP(=O)(O)O	Triosephosphate isomerase (TPI1, Gallus gallus, UniProt P00940, G210A/S211G/Y208T)	enzyme activity, competitive inhibitor, GPDH/NADH-coupled	–	pH 7.5, 25 °C, ionic strength 0.1 NaCl, together with: glyceraldehyde 3-phosphate substrate	baseline: mutant over wild type	Ki ratio	122
